Measured values pooled from the literature.
Numbered parts are unrelated; each lists some results of a single study.

Sample 1 — mode: inhibitor; tested at: 20 µM; quantity: inhibition
Target: Replicase polyprotein 1ab, nsp13 helicase (rep, Severe acute respiratory syndrome coronavirus 2, UniProt P0DTD1)
SMILES = C/C=C/C[C@@H](C)C(=O)[C@H]1C(=O)N[C@@H](C(C)C)C(=O)N(C)CC(=O)N(C)[C@@H](CC(C)C)C(=O)N[C@@H](C(C)C)C(=O)N(C)[C@@H](CC(C)C)C(=O)N[C@@H](C)C(=O)N[C@H](C)C(=O)N(C)[C@@H](CC(C)C)C(=O)N(C)[C@@H](CC(C)C)C(=O)N(C)[C@@H](C(C)C)C(=O)N1C; value = 4.71%
SMILES = CNC(=O)[C@H](Cc1c[nH]c2ccccc12)NC(=O)[C@@H](CC(=O)NO)CC(C)C; value = 2.13%
SMILES = O=C(c1ccc(CN2CCOCC2)cc1)N1CCN(C2CC2)CC1; value = -0.52%
SMILES = CC(C)c1c2cc(-c3ccnc(N[C@H]4CC[C@H](NC5CCOCC5)CC4)n3)ccc2nn1C; value = -6.15%
SMILES = CC(C)C[C@@H](C=O)NC(=O)[C@H](CC(C)C)NC(=O)[C@H](CC(C)C)NC(=O)OCc1ccccc1; value = -2.78%
SMILES = CCOC(=O)[C@H](CCc1ccccc1)N[C@@H](C)C(=O)N1Cc2cc(OC)c(OC)cc2C[C@H]1C(=O)O; value = 1.75%

Sample 2 — observed: enzyme activity; mode: inhibitor; tested at: 20 µM; notes: hit confirmation, with DTT; quantity: inhibition
Target: Replicase polyprotein 1ab, main protease (rep, Severe acute respiratory syndrome coronavirus 2, UniProt P0DTD1)
Compound = C[n+]1c2cc(N)ccc2cc2ccc(N)cc21.Nc1ccc2cc3ccc(N)cc3nc2c1; value = 68.2%
Compound = C[C@@H]1O[C@@H](O[C@@H]2[C@@H](O)[C@H](OCCc3ccc(O)c(O)c3)O[C@H](CO)[C@H]2OC(=O)/C=C/c2ccc(O)c(O)c2)[C@H](O)[C@H](O)[C@H]1O; value = -16.8%
Compound = COc1cccc2c1C(=O)c1c(O)c3c(c(O)c1C2=O)C[C@@](O)(/C(CO)=N/NC(=O)CCCCCN1C(=O)C=CC1=O)C[C@@H]3O[C@H]1C[C@H](N)[C@H](O)[C@H](C)O1; value = -9.5%

Sample 3 — target: Sox-I, HMG box (Salpingoeca helianthica); technique: Spec-seq; molecule type: double-stranded DNA, one strand shown; matrix: in vitro; tested at: not given; notes: whole probe, mean of replicates; baseline: not given; direction: lower = stronger binding; quantity: relative binding energy
Target sequence (chain): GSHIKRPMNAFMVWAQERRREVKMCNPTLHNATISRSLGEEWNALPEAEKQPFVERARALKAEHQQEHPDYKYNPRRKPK
Sequence = GAGTCGTCTCGTCAGCACCATAACACCGTAGAGCACTCAGGTC; value = 0.143 ln ratio
Sequence = GAGTCGTCTCGTCAGCACCATGCGGCCGTAGAGCACTCAGGTC; value = 1.34 ln ratio
Sequence = GAGTCGTCTCGTCAGCACGCGAGTTCCGTAGAGCACTCAGGTC; value = 1.12 ln ratio

Sample 4 — cell line: HEK-293T/ACE2; tested at: 10 µM; time: 16 h; baseline: vehicle; quantity: viability
SMILES = O=C(O)c1cc(/N=N/c2ccc(S(=O)(=O)Nc3ccccn3)cc2)ccc1O; value = 98.3%
SMILES = CC(=O)N(CC(O)CO)c1c(I)c(C(=O)NCC(O)CO)c(I)c(C(=O)NCC(O)CO)c1I (stereo not drawn); value = 102%
SMILES = CN(C)CC[C@@H](c1ccc(Cl)cc1)c1ccccn1; value = 99.4%
